# Assay results collected from several papers.
# Lines come from different studies, so protocols differ. ± gives the spread as reported.
# Technique: steady-state kinetics
# B1: Mj-MAT W387F/Y85W (Methanocaldococcus jannaschii, UniProt Q58605); chain MRNIIVKKLDVEPIEERPTEIVERKGLGHPDSICDGIAESVSRALCKMYMEKFGTILHHNTDQVELVGGHAYPKFGGGVMVSPIWILLSGRATMEILDKEKNEVIKLPVGTTAVKAAKEYLKKVLRNVDVDKDVIIDCRIGQGSMDLVDVFERQKNEVPLANDTSFGVGYAPLSTTERLVLETERFLNSDELKNEIPAVGEDIKVMGLREGKKITLTIAMAVVDRYVKNIEEYKEVIEKVRKKVEDLAKKIADGYEVEIHINTADDYERESVYLTVTGTSAEMGDDGSVGRGNRVNGLITPFRPMSMEAASGKNPVNHVGKIYNILANLIANDIAKLEGVKECYVRILSQIGKPINEPKALDIEIITEDSYDIKDIEPKAKEIANKFLDNIMEVQKMIVEGKVTTF
# B2: putA D779Y (Bradyrhizobium diazoefficiens, UniProt Q89E26); chain MPNIPPPFTAPYAPDDAEIAARLLPASHLSPPQEARIHRTATRLIEAIRKRDDRLGGVEDMLREFALSTKEGLALMVLAEALLRVPDARTADQFIEDKLGEGDFIHHETKSTAFLVNASAWALGLSARVIQPGETPDGTIGRLVKRLGAPAVRTATRQAMRLMGNHFVLGETIEQALERGKPRSGQKTRYSFDMLGEGARTAADARRYFDAYASAIETIGKAAGNHALPDRPGISVKLSALHPRFEAISRARVMVELVPQLLDLAQRAKAHDLNFTVDAEEADRLELSLDVIAATLADPSLKGWDGFGLAIQAYQKRASAVIDYVDALARAHDRKLMVRLVKGAYWDTEIKRAQERGLDGYPVFTRKAMTDLNYVACASKLLALRPRIFPQFATHNALTVATVLEMAEGSSGFEFQRLHGMGEALYEQLAKDHADIAYRTYAPVGSHRDLLAYLVRRLLENGANSSFVAQAADYRVPVPALLQRPADAIVRPQAAAHPRIPLPCDLFAPERRNSRGVEFGARTALDQLLTDVKAETGDLKPIADATPDQAHAAVAAARAGFAGWSRTPAGIRAAALEQAAHLLESRSAHFIALLQREGGKTLDDALSELREAADFCRYYAAQGRKLFGSETAMPGPTGESNALTMRGRGVFVAISPWNFPLAIFLGQVTAALMAGNSVVAKPAEQTPRIAREAVALLHEAGIPKSALYLVTGDGRIGAALTAHPDIAGVVFTGSTEVARSINRALAAKDGPIVPLIAETGGINAMIADATALPEQVADYVVTSAFRSAGQRCSALRLLFVQEDVADRMIEMVAGAARELKIGDPSDVATHVGPVIDVEAKQRLDAHIARMKTEARLHFAGPAPEGCFVAPHIFELTEAGQLTEEVFGPILHVVRYRPENLERVLRAIERTGYGLTLGVHSRIDDSIEAIIDRVQVGNIYVNRNMIGAVVGVQPFGGNGLSGTGPKAGGPHYLARFATEQTVTINTAAAGGNAALLAGEE
# B3: FDC1 (Saccharomyces cerevisiae, UniProt Q03034); chain MRKLNPALEFRDFIQVLKDEDDLIEITEEIDPNLEVGAIMRKAYESHLPAPLFKNLKGASKDLFSILGCPAGLRSKEKGDHGRIAHHLGLDPKTTIKEIIDYLLECKEKEPLPPITVPVSSAPCKTHILSEEKIHLQSLPTPYLHVSDGGKYLQTYGMWILQTPDKKWTNWSIARGMVVDDKHITGLVIKPQHIRQIADSWAAIGKANEIPFALCFGVPPAAILVSSMPIPEGVSESDYVGAILGESVPVVKCETNDLMVPATSEMVFEGTLSLTDTHLEGPFGEMHGYVFKSQGHPCPLYTVKAMSYRDNAILPVSNPGLCTDETHTLIGSLVATEAKELAIESGLPILDAFMPYEAQALWLILKVDLKGLQALKTTPEEFCKKVGDIYFRTKVGFIVHEIILVADDIDIFNFKEVIWAYVTRHTPVADQMAFDDVTSFPLAPFVSQSSRSKTMKGGKCVTNCIFRQQYERSFDYITCNFEKGYPKGLVDKVNENWKRYGYK
# B4: carbamoyl phosphate synthetase large subunit A23F/C24F/I18W (Escherichia coli, UniProt P00968); chain PKRTDIKSILILGAGPWVIGQFFEFDYSGAQACKALREEGYRVILVNSNPATIMTDPEMADATYIEPIHWEVVRKIIEKERPDAVLPTMGGQTALNCALELERQGVLEEFGVTMIGATADAIDKAEDRRRFDVAMKKIGLETARSGIAHTMEEALAVAADVGFPCIIRPSFTMGGSGGGIAYNREEFEEICARGLDLSPTKELLIDESLIGWKEYEMEVVRDKNDNCIIVCSIENFDAMGIHTGDSITVAPAQTLTDKEYQIMRNASMAVLREIGVETGGSNVQFAVNPKNGRLIVIEMNPRVSRSSALASKATGFPIAKVAAKLAVGYTLDELMNDITGGRTPASFEPSIDYVVTKIPRFNFEKFAGANDRLTTQMKSVGEVMAIGRTQQESLQKALRGLEVGATGFDPKVSLDDPEALTKIRRELKDAGADRIWYIADAFRAGLSVDGVFNLTNIDRWFLVQIEELVRLEEKVAEVGITGLNADFLRQLKRKGFADARLAKLAGVREAEIRKLRDQYDLHPVYKRVDTCAAEFATDTAYMYSTYEEECEANPSTDREKIMVLGGGPNRIGQGIEFDYCCVHASLALREDGYETIMVNCNPETVSTDYDTSDRLYFEPVTLEDVLEIVRIEKPKGVIVQYGGQTPLKLARALEAAGVPVIGTSPDAIDRAEDRERFQHAVERLKLKQPANATVTAIEMAVEKAKEIGYPLVVRPSYVLGGRAMEIVYDEADLRRYFQTAVSVSNDAPVLLDHFLDDAVEVDVDAICDGEMVLIGGIMEHIEQAGVHSGDSACSLPAYTLSQEIQDVMRQQVQKLAFELQVRGLMNVQFAVKNNEVYLIEVNPRAARTVPFVSKATGVPLAKVAARVMAGKSLAEQGVTKEVIPPYYSVKEVVLPFNKFPGVDPLLGPEMRSTGEVMGVGRTFAEAFAKAQLGSNSTMKKHGRALLSVREGDKERVVDLAAKLLKQGFELDATHGTAIVLGEAGINPRLVNKVHEGRPHIQDRIKNGEYTYIINTTSGRRAIEDSRVIRRSALQYKVHYDTTLNGGFATAMALNADATEKVISVQEMHAQIK
# B5: cbh1 (Trichoderma reesei, UniProt P62694); chain QSACTLQSETHPPLTWQKCSSGGTCTQQTGSVVIDANWRWTHATNSSTNCYDGNTWSSTLCPDNETCAKNCCLDGAAYASTYGVTTSGNSLSIGFVTQSAQKNVGARLYLMASDTTYQEFTLLGNEFSFDVDVSQLPCGLNGALYFVSMDADGGVSKYPTNTAGAKYGTGYCDSQCPRDLKFINGQANVEGWEPSSNNANTGIGGHGSCCSEMDIWEANSISEALTPHPCTTVGQEICEGDGCGGTYSDNRYGGTCDPDGCDWNPYRLGNTSFYGPGSSFTLDTTKKLTVVTQFETSGAINRYYVQNGVTFQQPNAELGSYSGNELNDDYCTAEEAEFGGSSFSDKGGLTQFKKATSGGMVLVMSLWDDYYANMLWLDSTYPTNETSSTPGAVRGSCSTSSGVPAQVESQSPNAKVTFSNIKFGPIGSTGNPSGGNPPGGNRGTTTTRRPATTTGSSPGPTQSHYGQCGGIGYSGPTVCASGTTCQVLNPYYSQCL
# B6: oxdC T165V (Bacillus subtilis, UniProt O34714); chain MKKQNDIPQPIRGDKGATVKIPRNIERDRQNPDMLVPPETDHGTVSNMKFSFSDTHNRLEKGGYAREVTVRELPISENLASVNMRLKPGAIRELHWHKEAEWAYMIYGSARVTIVDEKGRSFIDDVGEGDLWYFPSGLPHSIQALEEGAEFLLVFDDGSFSENSVFQLTDWLAHTPKEVIAANFGVTKEEISNLPGKEKYIFENQLPGSLKDDIVEGPNGEVPYPFTYRLLEQEPIESEGGKVYIADSTNFKVSKTIASALVTVEPGAMRELHWHPNTHEWQYYISGKARMTVFASDGHARTFNYQAGDVGYVPFAMGHYVENIGDEPLVFLEIFKDDHYADVSLNQWLAMLPETFVQAHLDLGKDFTDVLSKEKHPVVKKKCSK
# B7: BaiA2 (Clostridium scindens, UniProt P19337); chain MNLVQDKVTIITGGTRGIGFAAAKIFIDNGAKVSIFGETQEEVDTALAQLKELYPEEEVLGFAPDLTSRDAVMAAVGQVAQKYGRLDVMINNAGITSNNVFSRVSEEEFKHIMDINVTGVFNGAWCAYQCMKDAKKGVIINTASVTGIFGSLSGVGYPASKASVIGLTHGLGREIIRKNIRVVGVAPGVVNTDMTNGNPPEIMEGYLKALPMKRMLEPEEIANVYLFLASDLASGITATTVSVDGAYRP
# B8: protein (Rheum palmatum, UniProt A0A7L9A2S6); chain MKKTELVFLPAPAPGHLVSTVEFSKRLIARDARLTVTILVISSPFSRGAQTNPSPGIRYVTLPQVDVPQHLMKDSIEHTISVYIASHAPHVRDAVAALQTESTVHVAGLFLDMFCTPMIDVANELGLPSYVFFCSSAGFLGLLLHLPVHSQPRFDETGLDVLIPSFQNPVPTRVLPRFGFNELGYKSFMDHAKRFGETKGIIINTYAELEPYALKSLLDAYDTAPVYAVGPVLDLRSQVHMPCDAAERARIMGWLDKQPDSSVVFLCFGSGGSFSEHQIREISKGLSQSGQRFLWSVRKPPTGGLVKPTEYTETELRSVLGDEFWSLLDEGERGVVCGWAPQVEVLGHKSVGAFVSHCGWNSTLESLWFGKPMVTWPLYAEQQMNAFELVKELGIAVELTLDYRLHSSEVVEAREVERAVRRVMDENNPVRYKVKEMAEVCRATLVEGGSSFVCVDRLISGFLGEIN
# UniProt Q6F4M8, sequence (whole entry, looked up): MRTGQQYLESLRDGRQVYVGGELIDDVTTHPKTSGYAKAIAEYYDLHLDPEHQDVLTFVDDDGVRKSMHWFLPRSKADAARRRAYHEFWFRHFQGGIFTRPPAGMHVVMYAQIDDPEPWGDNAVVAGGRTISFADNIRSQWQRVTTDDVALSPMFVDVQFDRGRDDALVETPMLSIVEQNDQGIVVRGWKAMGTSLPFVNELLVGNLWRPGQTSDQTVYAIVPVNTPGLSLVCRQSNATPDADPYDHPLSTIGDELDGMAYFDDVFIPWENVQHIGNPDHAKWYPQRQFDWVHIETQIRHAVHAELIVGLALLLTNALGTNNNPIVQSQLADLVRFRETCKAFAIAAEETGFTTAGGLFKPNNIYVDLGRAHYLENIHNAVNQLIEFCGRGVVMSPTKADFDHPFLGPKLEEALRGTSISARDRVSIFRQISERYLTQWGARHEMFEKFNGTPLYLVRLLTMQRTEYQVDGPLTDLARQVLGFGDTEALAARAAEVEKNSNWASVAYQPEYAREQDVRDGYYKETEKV
# UniProt Q8N6T7, sequence (whole entry, looked up): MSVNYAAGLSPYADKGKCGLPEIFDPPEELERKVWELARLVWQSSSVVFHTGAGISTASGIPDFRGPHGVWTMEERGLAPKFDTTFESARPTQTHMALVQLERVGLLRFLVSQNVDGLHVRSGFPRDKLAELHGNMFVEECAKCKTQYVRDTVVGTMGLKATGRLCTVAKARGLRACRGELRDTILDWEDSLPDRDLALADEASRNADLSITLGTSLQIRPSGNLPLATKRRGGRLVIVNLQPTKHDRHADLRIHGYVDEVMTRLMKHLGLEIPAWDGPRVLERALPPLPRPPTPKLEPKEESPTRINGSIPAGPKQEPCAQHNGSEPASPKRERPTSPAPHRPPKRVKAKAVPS
Substance,substrate,conditions,kcat
B1 (Mj-MAT W387F/Y85W),CSCC[C@H](N)C(=O)O,"55 °C, with: ATP 2.5 mM, methionine 0.05-1 mM",2.77 ± 0.06 s⁻¹
B2 (putA D779Y),O=C(O)[C@@H]1CCC=N1,"pH 7.5, 23 °C",0.02 ± 0.01 s⁻¹
B3 (FDC1),COc1cc(/C=C/C(=O)O)ccc1O,"pH 7, 25 °C, apparent kcat, incomplete cofactor occupancy, apparent",3.8 ± 0.3 s⁻¹
"enzyme (Rhodococcus opacus, UniProt Q6F4M8)",O=[N+]([O-])c1ccc(O)cc1,"pH 7.5, 25 °C",0.079 ± 0.01 s⁻¹
"enzyme (Acetivibrio thermocellus, UniProt A3DJ38)",Nc1ncnc2c1ncn2[C@@H]1O[C@H](CO)[C@H]2OP(=O)(O)O[C@H]21,"pH 7.5, 45 °C",8.93 ± 0.4 s⁻¹
B4,Nc1ncnc2c1ncn2[C@@H]1O[C@H](COP(=O)(O)OP(=O)(O)OP(=O)(O)O)[C@@H](O)[C@H]1O,"pH 7.6, KCl 100 mM, with: glutamine 10 mM, ornithine 10 mM",0.06 ± 0.002 s⁻¹
"protein (Strongylocentrotus purpuratus, UniProt A0A7M7RGC6)",CC(C)(COP(=O)(O)OP(=O)(O)OC[C@H]1O[C@@H](n2cnc3c(N)ncnc32)[C@H](O)[C@@H]1OP(=O)(O)O)[C@@H](O)C(=O)NCCC(=O)NCCSC(=O)CC(=O)O,"without acetyl-CoA, with: malonyl-CoA",0.00567 s⁻¹
B5 (cbh1),[H][C@@]1(O[C@H]2[C@H](O)[C@@H](O)[C@H](Oc3ccc([N+](=O)[O-])cc3)O[C@@H]2CO)O[C@H](CO)[C@H](O)[C@H](O)[C@H]1O,"pH 5, 25 °C, apparent",0.087 ± 0.002 s⁻¹
"SIRT6 (Homo sapiens, UniProt Q8N6T7)",CSCC[C@H](NC(=O)[C@H](CC(C)C)NC(=O)[C@H](CCCCNC(C)=O)NC(=O)[C@H](CCCCN)NC(=O)[C@H](Cc1c[nH]cn1)NC(=O)[C@H](CCCNC(=N)N)NC(=O)[C@H](CO)NC(=O)[C@@H](NC(=O)[C@H](CO)NC(=O)[C@H](CCC(N)=O)NC(=O)CNC(=O)[C@H](CCCCN)NC(=O)[C@@H](N)CCCCN)[C@@H](C)O)C(=O)N[C@@H](Cc1ccccc1)C(=O)N[C@@H](CCCCN)C(=O)N[C@H](C(=O)N[C@@H](CCC(=O)O)C(=O)NCC(=O)O)[C@@H](C)O,"pH 7.5, 37 °C, with: NAD+ 800 µM, SIRT6 10 µM",0.0014 ± 0.0006 s⁻¹
B6 (oxdC T165V),O=C(O)C(=O)O,"pH 4.2, 25 °C",3.8 ± 0.4 s⁻¹
B7 (BaiA2),C[C@H](CCC(=O)SCCNC(=O)CCNC(=O)[C@H](O)C(C)(C)COP(=O)(O)OP(=O)(O)OC[C@H]1O[C@@H](n2cnc3c(N)ncnc32)[C@H](O)[C@@H]1OP(=O)(O)O)[C@H]1CC[C@H]2[C@@H]3CC[C@@H]4CC(=O)CC[C@]4(C)[C@H]3C[C@H](O)[C@]12C,"pH 8.7, 37 °C, with: NADH",0.152 s⁻¹
B8 (protein),O=c1c(O)c(-c2ccc(O)cc2)oc2cc(O)cc(O)c12,"pH 7.5, 35 °C, apparent, with: UDP-glucose",0.00538 ± 0.00042 s⁻¹

# Some of these lines once more:
Substance,substrate,conditions,kcat
B6 (oxdC T165V),O=C(O)C(=O)O,"pH 4.2, 25 °C",3.8 ± 0.4 s⁻¹
